Measured values pooled from the literature.
Every numbered part comes from another study and shows a few of its results, in no order. Several values in a cell are separate wells, animals, samples, runs or records.
Sequence of UniProt Q16566 (whole entry, looked up): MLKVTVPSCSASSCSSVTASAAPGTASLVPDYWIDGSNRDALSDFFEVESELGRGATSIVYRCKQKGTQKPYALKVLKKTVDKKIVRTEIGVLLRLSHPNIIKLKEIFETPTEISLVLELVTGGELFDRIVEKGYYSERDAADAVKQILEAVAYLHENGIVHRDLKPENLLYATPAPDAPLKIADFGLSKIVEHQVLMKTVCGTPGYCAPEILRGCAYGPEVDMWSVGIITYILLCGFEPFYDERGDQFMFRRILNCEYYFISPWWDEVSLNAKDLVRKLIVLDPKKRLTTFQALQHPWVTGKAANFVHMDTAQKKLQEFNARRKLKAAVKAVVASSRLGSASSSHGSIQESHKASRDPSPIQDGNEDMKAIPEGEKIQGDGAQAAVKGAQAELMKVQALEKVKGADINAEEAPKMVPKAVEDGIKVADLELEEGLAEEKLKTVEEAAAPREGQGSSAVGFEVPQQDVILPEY
Sequence of UniProt Q15759 (whole entry, looked up): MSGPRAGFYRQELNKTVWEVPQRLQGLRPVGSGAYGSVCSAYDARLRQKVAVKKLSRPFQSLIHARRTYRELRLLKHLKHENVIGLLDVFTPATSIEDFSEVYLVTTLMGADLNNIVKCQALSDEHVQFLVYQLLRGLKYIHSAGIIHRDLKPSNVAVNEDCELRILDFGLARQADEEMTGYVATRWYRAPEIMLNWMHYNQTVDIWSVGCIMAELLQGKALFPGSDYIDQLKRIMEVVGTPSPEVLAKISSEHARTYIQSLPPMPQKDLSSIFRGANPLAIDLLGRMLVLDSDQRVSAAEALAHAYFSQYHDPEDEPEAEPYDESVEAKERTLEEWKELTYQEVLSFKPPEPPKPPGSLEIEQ
Sequence of UniProt Q9HAZ1 (whole entry, looked up): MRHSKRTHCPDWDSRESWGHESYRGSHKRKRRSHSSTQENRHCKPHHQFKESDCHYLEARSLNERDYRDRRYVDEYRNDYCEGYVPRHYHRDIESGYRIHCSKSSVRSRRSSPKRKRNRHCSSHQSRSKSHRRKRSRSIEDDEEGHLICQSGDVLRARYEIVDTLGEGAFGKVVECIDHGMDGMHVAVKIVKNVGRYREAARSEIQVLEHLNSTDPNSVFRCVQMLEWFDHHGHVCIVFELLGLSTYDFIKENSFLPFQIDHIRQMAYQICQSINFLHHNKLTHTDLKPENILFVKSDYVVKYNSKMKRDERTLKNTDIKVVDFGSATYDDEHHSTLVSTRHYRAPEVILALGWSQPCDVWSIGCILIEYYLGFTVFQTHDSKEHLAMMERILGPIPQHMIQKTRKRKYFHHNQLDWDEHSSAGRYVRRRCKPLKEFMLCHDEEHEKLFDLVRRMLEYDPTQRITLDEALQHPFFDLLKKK
Sequence of UniProt P51956 (whole entry, looked up): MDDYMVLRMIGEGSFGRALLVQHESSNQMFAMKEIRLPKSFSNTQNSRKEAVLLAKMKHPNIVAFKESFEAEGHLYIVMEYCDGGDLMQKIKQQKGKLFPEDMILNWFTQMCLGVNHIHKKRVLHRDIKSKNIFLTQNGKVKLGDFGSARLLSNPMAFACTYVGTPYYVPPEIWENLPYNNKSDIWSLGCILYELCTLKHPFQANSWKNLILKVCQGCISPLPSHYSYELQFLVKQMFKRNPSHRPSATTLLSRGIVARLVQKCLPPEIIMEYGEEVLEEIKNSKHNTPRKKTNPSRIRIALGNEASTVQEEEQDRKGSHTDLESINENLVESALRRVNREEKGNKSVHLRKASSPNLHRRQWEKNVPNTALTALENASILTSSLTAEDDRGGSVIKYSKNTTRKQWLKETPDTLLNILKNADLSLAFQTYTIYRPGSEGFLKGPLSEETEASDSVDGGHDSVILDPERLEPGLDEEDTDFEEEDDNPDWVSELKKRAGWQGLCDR
Sequence of UniProt P31751 (whole entry, looked up): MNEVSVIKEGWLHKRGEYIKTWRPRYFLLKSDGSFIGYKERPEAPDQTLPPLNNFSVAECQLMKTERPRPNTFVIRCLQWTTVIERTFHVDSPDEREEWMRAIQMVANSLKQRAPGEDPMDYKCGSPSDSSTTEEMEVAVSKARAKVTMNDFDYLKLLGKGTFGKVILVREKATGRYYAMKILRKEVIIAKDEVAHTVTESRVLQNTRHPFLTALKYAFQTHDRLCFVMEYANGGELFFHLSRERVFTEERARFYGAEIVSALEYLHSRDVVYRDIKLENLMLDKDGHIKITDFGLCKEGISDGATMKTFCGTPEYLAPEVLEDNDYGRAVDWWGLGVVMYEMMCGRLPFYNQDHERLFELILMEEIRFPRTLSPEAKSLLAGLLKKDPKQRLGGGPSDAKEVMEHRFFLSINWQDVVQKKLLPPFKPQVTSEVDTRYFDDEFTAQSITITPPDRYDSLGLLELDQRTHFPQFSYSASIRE
Sequence of UniProt Q13464 (whole entry, looked up): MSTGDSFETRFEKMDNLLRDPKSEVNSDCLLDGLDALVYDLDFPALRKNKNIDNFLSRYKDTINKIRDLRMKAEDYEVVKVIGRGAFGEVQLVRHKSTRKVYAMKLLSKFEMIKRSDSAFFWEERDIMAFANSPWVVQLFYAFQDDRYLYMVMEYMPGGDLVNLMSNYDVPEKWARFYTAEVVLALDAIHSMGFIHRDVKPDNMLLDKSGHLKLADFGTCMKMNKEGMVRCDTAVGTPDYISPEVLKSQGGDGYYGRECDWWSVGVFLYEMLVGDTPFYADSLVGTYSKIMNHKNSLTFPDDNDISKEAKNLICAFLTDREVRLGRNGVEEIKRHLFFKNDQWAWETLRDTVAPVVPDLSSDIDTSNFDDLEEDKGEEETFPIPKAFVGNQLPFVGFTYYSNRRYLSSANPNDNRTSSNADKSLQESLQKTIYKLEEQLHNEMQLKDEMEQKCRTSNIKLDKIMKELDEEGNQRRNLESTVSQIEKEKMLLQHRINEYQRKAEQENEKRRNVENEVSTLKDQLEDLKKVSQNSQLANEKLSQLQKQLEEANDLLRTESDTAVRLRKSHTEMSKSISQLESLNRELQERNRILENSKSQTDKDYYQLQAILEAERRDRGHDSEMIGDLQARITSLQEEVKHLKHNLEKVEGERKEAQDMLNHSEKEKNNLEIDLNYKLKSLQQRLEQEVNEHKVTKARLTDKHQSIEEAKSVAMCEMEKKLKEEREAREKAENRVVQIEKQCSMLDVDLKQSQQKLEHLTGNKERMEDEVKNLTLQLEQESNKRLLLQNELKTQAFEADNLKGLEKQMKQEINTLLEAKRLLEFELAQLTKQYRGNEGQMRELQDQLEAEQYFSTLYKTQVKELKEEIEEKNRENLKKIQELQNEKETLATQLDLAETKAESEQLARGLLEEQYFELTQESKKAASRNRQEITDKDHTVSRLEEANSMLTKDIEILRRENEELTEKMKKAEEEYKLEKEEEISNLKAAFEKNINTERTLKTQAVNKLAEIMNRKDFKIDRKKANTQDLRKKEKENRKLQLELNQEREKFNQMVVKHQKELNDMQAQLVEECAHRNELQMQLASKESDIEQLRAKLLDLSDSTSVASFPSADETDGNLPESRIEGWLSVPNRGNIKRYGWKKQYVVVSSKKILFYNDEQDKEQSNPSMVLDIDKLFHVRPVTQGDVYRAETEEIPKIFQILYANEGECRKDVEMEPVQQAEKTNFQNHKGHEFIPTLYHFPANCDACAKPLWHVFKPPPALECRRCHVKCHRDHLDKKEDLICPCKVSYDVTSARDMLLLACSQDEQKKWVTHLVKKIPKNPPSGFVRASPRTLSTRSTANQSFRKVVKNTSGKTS
Sequence of UniProt P08581 (whole entry, looked up): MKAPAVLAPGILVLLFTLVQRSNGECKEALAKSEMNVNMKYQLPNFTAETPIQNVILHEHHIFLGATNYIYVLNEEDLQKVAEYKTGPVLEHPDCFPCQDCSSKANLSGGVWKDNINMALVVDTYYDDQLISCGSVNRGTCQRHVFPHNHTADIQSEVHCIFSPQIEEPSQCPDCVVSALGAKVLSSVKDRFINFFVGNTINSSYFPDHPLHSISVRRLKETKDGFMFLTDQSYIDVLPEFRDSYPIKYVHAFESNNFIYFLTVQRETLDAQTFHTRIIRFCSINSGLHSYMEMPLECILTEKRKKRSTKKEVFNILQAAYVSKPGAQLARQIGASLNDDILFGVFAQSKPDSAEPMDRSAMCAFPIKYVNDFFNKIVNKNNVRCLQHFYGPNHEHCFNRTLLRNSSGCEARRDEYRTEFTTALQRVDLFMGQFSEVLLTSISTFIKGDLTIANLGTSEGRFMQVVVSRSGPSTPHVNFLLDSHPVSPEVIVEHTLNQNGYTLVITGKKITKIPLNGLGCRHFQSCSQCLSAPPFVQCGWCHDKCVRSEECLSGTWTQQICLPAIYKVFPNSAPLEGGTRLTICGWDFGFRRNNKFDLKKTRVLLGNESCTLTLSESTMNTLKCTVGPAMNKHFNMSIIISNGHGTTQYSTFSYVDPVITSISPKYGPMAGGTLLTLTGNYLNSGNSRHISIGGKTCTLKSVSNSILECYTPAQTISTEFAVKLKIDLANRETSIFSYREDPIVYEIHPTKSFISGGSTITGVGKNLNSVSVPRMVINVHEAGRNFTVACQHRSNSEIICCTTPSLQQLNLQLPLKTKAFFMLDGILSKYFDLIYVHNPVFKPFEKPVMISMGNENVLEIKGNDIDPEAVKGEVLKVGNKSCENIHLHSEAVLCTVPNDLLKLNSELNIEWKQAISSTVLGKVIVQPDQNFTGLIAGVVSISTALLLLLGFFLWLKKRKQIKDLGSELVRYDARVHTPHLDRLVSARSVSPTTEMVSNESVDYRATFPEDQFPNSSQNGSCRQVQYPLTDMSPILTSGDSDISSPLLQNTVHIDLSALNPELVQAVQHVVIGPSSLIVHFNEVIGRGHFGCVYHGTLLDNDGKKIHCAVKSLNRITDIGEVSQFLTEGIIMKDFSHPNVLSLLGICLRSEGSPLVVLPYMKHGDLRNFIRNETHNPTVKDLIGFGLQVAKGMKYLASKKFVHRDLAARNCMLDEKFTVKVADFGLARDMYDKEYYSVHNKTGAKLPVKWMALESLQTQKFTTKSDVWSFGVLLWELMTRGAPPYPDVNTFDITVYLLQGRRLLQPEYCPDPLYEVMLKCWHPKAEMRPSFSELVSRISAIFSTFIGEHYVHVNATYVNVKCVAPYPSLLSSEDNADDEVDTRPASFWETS

Set 1
SMILES: CCCCc1c(-c2ccc(O)cc2)[nH]c2nccnc12
Read-out: enzyme activity
Mode: inhibitor
Tested at: 0.5 µM
Baseline: control
| target | remaining activity |
| --- | --- |
| Serine/threonine-protein kinase DCLK2 (DCLK2, Homo sapiens, UniProt Q8N568) | 99.7% |
| Mitogen-activated protein kinase 11 (MAPK11, Homo sapiens, UniProt Q15759) | 103% |
| Tyrosine-protein kinase TXK (TXK, Homo sapiens, UniProt P42681) | 65% |
| G protein-coupled receptor kinase 4 (GRK4, Homo sapiens, UniProt P32298) | 101% |
| Hepatocyte growth factor receptor (MET, Homo sapiens, UniProt P08581) | 82.7% |
| Serine/threonine-protein kinase Nek3 (NEK3, Homo sapiens, UniProt P51956) | 103% |
| Rho-associated protein kinase 1 (ROCK1, Homo sapiens, UniProt Q13464) | 98.6% |
| Dual specificity mitogen-activated protein kinase kinase 1 (MAP2K1, Homo sapiens, UniProt Q02750) | 94.8% |
| Calcium/calmodulin-dependent protein kinase type IV (CAMK4, Homo sapiens, UniProt Q16566) | 93.9% |
| RAC-beta serine/threonine-protein kinase (AKT2, Homo sapiens, UniProt P31751) | 95.3% |
| Dual specificity protein kinase CLK4 (CLK4, Homo sapiens, UniProt Q9HAZ1) | 64.3% |
| Cyclin-dependent kinase 9, with cyclin K (CDK9, Homo sapiens, UniProt P50750) | 42.8% |
| Serine/threonine-protein kinase PLK3 (PLK3, Homo sapiens, UniProt Q9H4B4) | 90.6% |

Set 2
Structure (SMILES): C[C@@H]1CN(c2cc(-c3n[nH]c4ccc(OC5(C)CC5)cc34)ncn2)C[C@H](C)O1
Method: competition with immobilised ligand
| target | test | setting | remaining binding |
| --- | --- | --- | --- |
| Mast/stem cell growth factor receptor Kit (KIT, Homo sapiens, UniProt P10721, D816V) | cell-free assay | 0.1 µM | 79% |
| Serine/threonine-protein kinase Nek5 (NEK5, Homo sapiens, UniProt Q6P3R8) | cell-free assay | 0.1 µM | 100% |
| Epithelial discoidin domain-containing receptor 1 (DDR1, Homo sapiens, UniProt Q08345) | cell-free assay | 0.1 µM | 91% |
| Inhibitor of nuclear factor kappa-B kinase subunit beta (IKBKB, Homo sapiens, UniProt O14920) | cell-free assay | 0.1 µM | 84% |
| Tyrosine-protein kinase Blk (BLK, Homo sapiens, UniProt P51451) | cell-free assay | 0.1 µM | 83% |
| Epidermal growth factor receptor (EGFR, Homo sapiens, UniProt P00533, del752-759) | binding | 1 µM | 43% |
| Calcium/calmodulin-dependent protein kinase type IV (CAMK4, Homo sapiens, UniProt Q16566) | cell-free assay | 0.1 µM | 78% |

Set 3
Species: human
Matrix: microsomes or S9
Tested at: 2 µM
Time: 0.5 h
| SMILES | remaining compound |
| --- | --- |
| Cc1ccc(CO)c(-c2ccc3c(c2)CNCC2(CCC2)O3)c1 | 31.6% |
| CCOc1ccc(-n2nc3ccc(N)cc3n2)cc1 | 24.9% |
| Cc1nn(CC(=O)NCCN2CCCCC2C)c(C)c1C (stereo not shown) | > 99% |
| CCOC(=O)c1c(=O)n(-c2ccc(C)cc2)nc2ccccc12 | 0.454% |
| COc1cc2c(cc1OC)-c1cc(-c3ccccc3F)cn1CC2 | 6.51% |
| COc1ccc(C2OC(=O)CC2C(=O)N2CCN(c3cc(Cl)ccc3C)CC2)cc1OC (stereo not shown) | 27.3% |
| CC(C)Oc1ccc(C(=O)O)cc1NC(=O)c1cccn1C | 80.5% |
| CCNC(=O)NCCc1ccc(OC)c(Nc2ncc(Cl)c(Nc3ccccc3S(=O)(=O)C(C)C)n2)c1 | 0.861% |
| Cc1c(C(=O)O)sc2[nH]c(=O)n(CC(C)C)c(=O)c12 | 79.4% |
| CC(C)(NCc1ccncc1Cl)c1ccc(F)cc1Cl | 0% |
| COC(=O)CC(c1cc(OC)c(O)c(OC)c1)c1c(O)n2ccccc2nc1=O (stereo not shown) | 46.5% |

Set 4
Cell line: mouse MPNST tumor cells
Method: high-content immunofluorescence imaging
Item: nuclear SOX9
Tested at: 10 µM
Time: 12 h
Setting: mean of 2 replicates
Baseline: DMSO control
Direction: higher = more nuclear SOX9
| Structure (SMILES) | nuclear SOX9 intensity |
| --- | --- |
| COc1ccc(C(=O)c2ccccc2)c(O)c1 | 102 % of DMSO |
| CCC[C@@H]1C[C@@H](C(=O)N[C@@H]([C@H]2O[C@H](SC)[C@H](O)[C@@H](O)[C@H]2O)[C@H](C)Cl)N(C)C1 | 99.4 % of DMSO |
| CC1(C)S[C@@H]2[C@H](NC(=O)[C@H](N)c3ccc(O)cc3)C(=O)N2[C@H]1C(=O)O | 92.2 % of DMSO |
| Cc1cc(C(=O)NNCc2ccccc2)no1 | 101 % of DMSO |
| COC(=O)Nc1nc2ccc(SC(C)C)cc2[nH]1 | 182 % of DMSO |
| CCOc1cc(CC(=O)N[C@@H](CC(C)C)c2ccccc2N2CCCCC2)ccc1C(=O)O | 110 % of DMSO and 87 % of DMSO |
| CC(C)(N)c1ncc(-c2ccc(OC(F)(F)F)cc2)[nH]1 | 126 % of DMSO |
| COc1cc(NS(=O)(=O)c2ccc(N)cc2)ncn1 | 93.5 % of DMSO |
| O=C(NCCCCN1CCOCC1)c1cc2ccccc2o1 | 94.7 % of DMSO |

A few entries again (set 1):
| target | remaining activity |
| --- | --- |
| Mitogen-activated protein kinase 11 (MAPK11, Homo sapiens, UniProt Q15759) | 103% |
| Cyclin-dependent kinase 9, with cyclin K (CDK9, Homo sapiens, UniProt P50750) | 42.8% |
